Experimental data from different studies.
Every numbered part comes from another study and shows a few of its results, in no order. Values joined by “and” are separate records of one study, mostly repeats; a detail may differ.
Sequence of UniProt Q56UN5 (whole entry, looked up): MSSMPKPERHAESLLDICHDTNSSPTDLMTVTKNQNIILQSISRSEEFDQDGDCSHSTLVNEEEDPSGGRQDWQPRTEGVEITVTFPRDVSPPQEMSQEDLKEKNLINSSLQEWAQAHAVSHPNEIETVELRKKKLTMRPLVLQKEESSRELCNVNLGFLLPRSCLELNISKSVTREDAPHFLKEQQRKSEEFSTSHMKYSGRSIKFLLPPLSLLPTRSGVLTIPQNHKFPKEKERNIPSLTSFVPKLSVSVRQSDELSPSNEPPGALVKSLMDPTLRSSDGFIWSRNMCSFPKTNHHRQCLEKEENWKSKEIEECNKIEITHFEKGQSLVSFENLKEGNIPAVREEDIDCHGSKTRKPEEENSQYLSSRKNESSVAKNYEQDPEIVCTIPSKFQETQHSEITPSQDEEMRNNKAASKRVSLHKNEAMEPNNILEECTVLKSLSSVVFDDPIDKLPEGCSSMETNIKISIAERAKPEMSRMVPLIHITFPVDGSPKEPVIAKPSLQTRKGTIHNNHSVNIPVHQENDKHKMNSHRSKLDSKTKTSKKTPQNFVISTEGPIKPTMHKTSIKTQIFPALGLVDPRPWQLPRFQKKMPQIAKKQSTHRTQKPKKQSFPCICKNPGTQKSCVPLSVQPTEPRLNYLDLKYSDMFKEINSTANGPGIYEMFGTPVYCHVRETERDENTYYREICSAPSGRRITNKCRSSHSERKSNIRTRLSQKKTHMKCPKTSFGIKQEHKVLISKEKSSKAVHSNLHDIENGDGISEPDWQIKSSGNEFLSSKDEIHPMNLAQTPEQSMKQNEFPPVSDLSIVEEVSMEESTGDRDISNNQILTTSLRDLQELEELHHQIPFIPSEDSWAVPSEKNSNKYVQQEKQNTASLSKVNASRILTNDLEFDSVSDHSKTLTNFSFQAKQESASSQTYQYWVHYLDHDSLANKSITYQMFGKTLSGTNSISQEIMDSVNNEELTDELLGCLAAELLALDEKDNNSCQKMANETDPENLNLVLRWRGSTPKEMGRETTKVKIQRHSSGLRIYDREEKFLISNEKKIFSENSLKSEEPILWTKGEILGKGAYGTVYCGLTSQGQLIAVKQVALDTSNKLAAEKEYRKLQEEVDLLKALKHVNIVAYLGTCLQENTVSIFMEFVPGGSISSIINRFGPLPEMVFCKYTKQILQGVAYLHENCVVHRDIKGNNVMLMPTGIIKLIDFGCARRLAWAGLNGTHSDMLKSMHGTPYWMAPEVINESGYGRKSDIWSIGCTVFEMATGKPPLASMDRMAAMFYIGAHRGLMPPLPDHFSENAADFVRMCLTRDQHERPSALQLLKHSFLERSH
Sequence of UniProt Q9NSY1 (whole entry, looked up): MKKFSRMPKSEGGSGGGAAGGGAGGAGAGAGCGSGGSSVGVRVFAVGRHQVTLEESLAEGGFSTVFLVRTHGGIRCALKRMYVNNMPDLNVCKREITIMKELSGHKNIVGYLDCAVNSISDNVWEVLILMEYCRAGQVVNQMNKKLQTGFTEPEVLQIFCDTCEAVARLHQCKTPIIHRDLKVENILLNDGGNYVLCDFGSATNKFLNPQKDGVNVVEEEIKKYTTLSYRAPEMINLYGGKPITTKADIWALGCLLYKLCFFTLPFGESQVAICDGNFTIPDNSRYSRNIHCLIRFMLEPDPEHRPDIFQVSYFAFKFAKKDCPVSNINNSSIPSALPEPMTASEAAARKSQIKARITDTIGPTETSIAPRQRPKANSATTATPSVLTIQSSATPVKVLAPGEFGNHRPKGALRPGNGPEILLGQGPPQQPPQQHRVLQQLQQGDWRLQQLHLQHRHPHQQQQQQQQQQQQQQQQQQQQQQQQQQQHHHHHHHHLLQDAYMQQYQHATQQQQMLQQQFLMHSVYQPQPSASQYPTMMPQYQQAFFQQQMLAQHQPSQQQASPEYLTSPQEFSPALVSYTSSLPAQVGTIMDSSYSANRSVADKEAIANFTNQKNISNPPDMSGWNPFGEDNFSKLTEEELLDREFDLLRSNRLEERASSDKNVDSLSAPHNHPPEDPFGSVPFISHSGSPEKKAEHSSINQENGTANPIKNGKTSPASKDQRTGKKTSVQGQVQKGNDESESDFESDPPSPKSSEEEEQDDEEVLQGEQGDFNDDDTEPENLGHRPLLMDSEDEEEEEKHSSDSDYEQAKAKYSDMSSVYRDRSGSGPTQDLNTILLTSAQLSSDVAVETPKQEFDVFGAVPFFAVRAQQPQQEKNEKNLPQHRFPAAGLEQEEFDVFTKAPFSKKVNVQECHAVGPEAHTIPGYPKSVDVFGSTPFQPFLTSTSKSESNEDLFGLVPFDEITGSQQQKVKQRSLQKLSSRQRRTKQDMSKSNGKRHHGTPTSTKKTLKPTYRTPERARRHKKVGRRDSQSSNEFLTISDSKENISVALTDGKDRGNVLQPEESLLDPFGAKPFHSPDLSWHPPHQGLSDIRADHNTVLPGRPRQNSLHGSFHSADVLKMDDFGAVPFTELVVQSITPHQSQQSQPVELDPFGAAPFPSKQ
Sequence of UniProt Q12852 (whole entry, looked up): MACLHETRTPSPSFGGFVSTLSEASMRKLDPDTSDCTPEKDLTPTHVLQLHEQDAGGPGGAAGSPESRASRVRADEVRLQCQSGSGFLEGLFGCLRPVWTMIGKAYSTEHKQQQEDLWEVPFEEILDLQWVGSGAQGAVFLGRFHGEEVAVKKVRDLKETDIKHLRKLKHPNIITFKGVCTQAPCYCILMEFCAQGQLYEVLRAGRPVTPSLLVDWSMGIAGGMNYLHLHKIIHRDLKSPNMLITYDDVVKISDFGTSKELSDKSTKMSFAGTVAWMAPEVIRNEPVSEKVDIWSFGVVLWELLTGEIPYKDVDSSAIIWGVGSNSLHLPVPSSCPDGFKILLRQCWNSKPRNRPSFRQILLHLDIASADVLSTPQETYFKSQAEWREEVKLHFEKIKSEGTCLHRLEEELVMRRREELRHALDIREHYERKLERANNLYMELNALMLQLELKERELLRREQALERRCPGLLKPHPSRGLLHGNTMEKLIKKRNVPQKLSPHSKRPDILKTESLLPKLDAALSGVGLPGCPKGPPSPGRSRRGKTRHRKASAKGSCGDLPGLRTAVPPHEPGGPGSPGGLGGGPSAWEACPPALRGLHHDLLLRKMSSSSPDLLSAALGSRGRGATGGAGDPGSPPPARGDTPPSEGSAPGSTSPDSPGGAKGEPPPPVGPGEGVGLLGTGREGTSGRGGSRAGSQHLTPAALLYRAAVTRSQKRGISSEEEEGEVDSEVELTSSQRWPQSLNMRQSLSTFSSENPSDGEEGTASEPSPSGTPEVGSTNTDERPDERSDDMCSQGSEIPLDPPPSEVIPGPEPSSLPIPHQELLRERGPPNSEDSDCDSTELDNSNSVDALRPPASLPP
Sequence of UniProt Q16816 (whole entry, looked up): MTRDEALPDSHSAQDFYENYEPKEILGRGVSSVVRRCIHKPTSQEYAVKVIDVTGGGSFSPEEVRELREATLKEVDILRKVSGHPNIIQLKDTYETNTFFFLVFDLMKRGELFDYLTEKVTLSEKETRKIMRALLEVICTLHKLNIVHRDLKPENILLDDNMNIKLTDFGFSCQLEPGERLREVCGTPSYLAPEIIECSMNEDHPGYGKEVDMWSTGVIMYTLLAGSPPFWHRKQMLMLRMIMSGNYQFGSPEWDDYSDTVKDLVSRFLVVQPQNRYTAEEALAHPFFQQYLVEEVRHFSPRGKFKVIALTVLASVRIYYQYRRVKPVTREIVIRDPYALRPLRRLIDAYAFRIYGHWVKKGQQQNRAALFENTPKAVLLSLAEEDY
Sequence of UniProt Q9BQI3 (whole entry, looked up): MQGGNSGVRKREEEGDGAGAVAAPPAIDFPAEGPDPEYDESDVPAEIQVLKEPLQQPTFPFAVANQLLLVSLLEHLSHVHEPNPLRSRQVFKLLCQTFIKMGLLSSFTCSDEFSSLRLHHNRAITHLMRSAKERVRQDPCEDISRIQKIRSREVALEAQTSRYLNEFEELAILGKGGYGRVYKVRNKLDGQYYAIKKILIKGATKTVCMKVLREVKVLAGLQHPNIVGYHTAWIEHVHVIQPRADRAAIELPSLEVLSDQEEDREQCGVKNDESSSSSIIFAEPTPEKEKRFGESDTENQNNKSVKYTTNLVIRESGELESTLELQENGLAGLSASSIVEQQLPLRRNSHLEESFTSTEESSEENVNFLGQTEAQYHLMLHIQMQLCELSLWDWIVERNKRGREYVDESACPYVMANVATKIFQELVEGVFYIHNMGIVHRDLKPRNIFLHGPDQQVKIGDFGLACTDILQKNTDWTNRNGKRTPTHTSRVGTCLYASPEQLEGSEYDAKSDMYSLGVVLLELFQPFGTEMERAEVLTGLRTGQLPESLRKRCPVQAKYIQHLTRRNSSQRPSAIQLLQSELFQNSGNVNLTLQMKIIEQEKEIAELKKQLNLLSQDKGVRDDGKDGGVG

Sample 1 — method: competition with immobilised ligand; concentration: 1 µM; endpoint: remaining binding
Compound: O=C(O)[C@@H]1[C@@H](Cn2nnc3ccccc3c2=O)CC[C@H]1C(=O)c1ccc(OCCC2CCOCC2)cc1
PRKG2 (Homo sapiens, UniProt Q13237); cell-free assay: 100%
MAP3K12 (Homo sapiens, UniProt Q12852); cell-free assay: 98%
EIF2AK1 (Homo sapiens, UniProt Q9BQI3); cell-free assay: 100%
EPHB2 (Homo sapiens, UniProt P29323); cell-free assay: 100%
MAP3K19 (Homo sapiens, UniProt Q56UN5); cell-free assay: 84%
FLT3 (Homo sapiens, UniProt P36888, K663Q); cell-free assay: 100%
Myosin-IIIb (MYO3B, Homo sapiens, UniProt Q8WXR4); binding: 90%
PHKG1 (Homo sapiens, UniProt Q16816); cell-free assay: 100%
BMP2K (Homo sapiens, UniProt Q9NSY1); cell-free assay: 100%
Ribosomal protein S6 kinase alpha-3, C-terminal kinase domain (RPS6KA3, Homo sapiens, UniProt P51812); cell-free assay: 85%
HIPK4 (Homo sapiens, UniProt Q8NE63); cell-free assay: 100%
PAK5 (Homo sapiens, UniProt Q9P286); cell-free assay: 96%

Sample 2 — cell line: mouse MPNST tumor cells; method: high-content nuclear imaging; refers to: cell number; concentration: 10 µM; time: 12 h; notes: mean of 2 replicates; relative to: plate mean; direction: higher = more cells; endpoint: nuclei count
CCOc1ccc2ccccc2c1C(=O)N[C@@H]1C(=O)N2[C@@H]1SC(C)(C)[C@@H]2C(=O)O: 0.0502 z-score
Cn1ccc2cc(NC(=O)Nc3cccnc3)ccc21: 1.35 z-score
CCOC(=O)[N-]c1c[n+](N2CCOCC2)no1: 0.166 z-score
Nc1ncnc2c1c(COc1cccc(Cl)c1)nn2C1CCOCC1: 0.656 z-score
Cc1cnc(NC(=O)Nc2cc(Br)c(C)cc2OC[C@@H]2CNCCO2)cn1: -5.05 z-score
Nc1ncnc2c1ncn2[C@@H]1O[C@H](CO)[C@@H](O)[C@H]1O: -0.0444 z-score
CN(C)CCCN1c2ccccc2Sc2ccc(C(F)(F)F)cc21: -7.3 z-score
Cc1ccccc1COc1ccc(C2C3=C(CC(C)(C)CC3=O)OC3=C2C(=O)CC(C)(C)C3)cc1: 2.29 z-score

Sample 3 — SMILES: O=C1NCCc2[nH]c(-c3ccncc3)cc21; cell line: HH; method: CCK-8; endpoint: viability
1000 nM: 39.9% and 29.5% and 46.1%
10000 nM: 0%
100 nM: 87.6% and 92.6% and 89.5%
50 nM: 98.2% and 94.4% and 97.9%

Sample 4 — read-out: enzyme activity; action: inhibitor; concentration: 0.5 µM; relative to: control; endpoint: remaining activity
Target: Mitogen-activated protein kinase 9 (MAPK9, Homo sapiens, UniProt P45984)
Sequence of UniProt P45984 (whole entry, looked up): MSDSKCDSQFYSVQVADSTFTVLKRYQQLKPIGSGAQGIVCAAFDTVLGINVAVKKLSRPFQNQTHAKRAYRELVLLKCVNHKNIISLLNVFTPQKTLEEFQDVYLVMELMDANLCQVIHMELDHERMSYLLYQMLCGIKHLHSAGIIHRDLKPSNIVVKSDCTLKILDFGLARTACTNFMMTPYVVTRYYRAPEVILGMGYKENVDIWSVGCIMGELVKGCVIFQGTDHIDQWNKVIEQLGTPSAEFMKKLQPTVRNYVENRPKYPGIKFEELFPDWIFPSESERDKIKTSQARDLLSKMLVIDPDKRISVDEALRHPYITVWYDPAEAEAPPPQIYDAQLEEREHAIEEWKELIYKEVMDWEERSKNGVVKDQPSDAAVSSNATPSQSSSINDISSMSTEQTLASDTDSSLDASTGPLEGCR
Nc1cccc(-c2cc3c(Oc4cccc(O)c4)ncnc3[nH]2)c1: 111%
Cn1nc2c3c(cccc31)C(=O)c1ccccc1-2: 85.2%
CCN(CC)CCNC(=O)c1c(C)[nH]c(/C=C2\C(=O)Nc3ccc(Cl)cc32)c1C: 109%
Cc1nc2cc3nc(-c4cccs4)cnc3cc2n1C: 74.7%
N#C/C(=C\c1ccc(O)c(O)c1)C(=O)NCc1ccccc1: 103%
c1ccc(-c2[nH]ncc2-c2ccnc3ccccc23)nc1: 98.9%
Cc1cc2ncc(-c3ccccc3)nc2cc1C: 104%
O=C(NC(NC(=S)Nc1ccc(F)c([N+](=O)[O-])c1)C(Cl)(Cl)Cl)C(c1ccccc1)c1ccccc1 (stereo not drawn): 88.6%
CN([C@@H](Cc1ccc(OS(=O)(=O)c2cccc3cnccc23)cc1)C(=O)N1CCN(c2ccccc2)CC1)S(=O)(=O)c1cccc2cnccc12: 85.6%
CCN(CC)C(=O)c1ccc(Nc2nc(OCC3CCCCC3)c3[nH]cnc3n2)cc1: 60.8%
O=C(Nc1cccc(Nc2nccc(Nc3cccc(C(F)(F)F)c3)n2)c1)C1CC1: 98.7%
C[C@@H]1CCN(C(=O)CC#N)C[C@@H]1N(C)c1ncnc2[nH]ccc12: 112%
Ic1cccc(CSc2nnc(-c3ccncc3)o2)c1: 108%
O=C1c2ccccc2-c2n[nH]c3cccc1c23: 36.4%
CCOc1nc(NC(=O)Cc2cc(OC)ccc2OC)cc(N)c1C#N: 6.45%
N#Cc1c(NC(=O)c2cccc3ccccc23)sc2c1CCCC2: 33.9%
COc1cc2ncnc(Nc3cccc(Cl)c3)c2cc1OC: 92.2%
c1ccc(-c2cnc(Nc3ccc(OCCN4CCCC4)cc3)s2)cc1: 144%
COc1cc2ncnc(Nc3ccc(O)c(Br)c3)c2cc1OC: 88.4%
O=C1C(Cl)=C(N2C(=O)CCC2=O)C(=O)c2ccccc21: 93.6%
COc1cc2c(cc1OC)-c1[nH]nc(Nc3cccc(F)c3)c1C2: 75.9%
O=c1cc(-c2cccc3c2Sc2ccccc2S3)oc(N2CCOCC2)c1: 97.7%
CN(C)C[C@H]1CCn2c(c(C3=C(c4cn(C)c5ccccc45)C(=O)NC3=O)c3ccccc32)C1: 105%
Cc1cn(-c2cc(NC(=O)c3ccc(C)c(Nc4nccc(-c5cccnc5)n4)c3)cc(C(F)(F)F)c2)cn1: 95.9%

A few entries again (sample 1):
PHKG1 (Homo sapiens, UniProt Q16816); cell-free assay: 100%
EPHB2 (Homo sapiens, UniProt P29323); cell-free assay: 100%
MAP3K12 (Homo sapiens, UniProt Q12852); cell-free assay: 98%
PRKG2 (Homo sapiens, UniProt Q13237); cell-free assay: 100%
Myosin-IIIb (MYO3B, Homo sapiens, UniProt Q8WXR4); binding: 90%
Ribosomal protein S6 kinase alpha-3, C-terminal kinase domain (RPS6KA3, Homo sapiens, UniProt P51812); cell-free assay: 85%
